Measured values from different studies.
Lines come from different studies, so protocols differ. Values joined by “and” are separate records of one study, mostly repeats; a detail may differ.
Target: Activin receptor type-1-like (ACVRL1, Homo sapiens, UniProt P37023)

CC(C)=CC1OC(C)(C)C2C=C3C(=O)C(Cl)=CC(O)C3C3C(O)C4OC4C(=O)C132 (stereo not shown)  remaining binding (cell-free assay, competition with immobilised ligand; 10 µM): 100%
C=CC(=O)N1Cc2nc(-c3cc(-c4cc(Cl)cnc4Cl)c(F)cc3F)n(-c3ccncn3)c2C1  inhibition (cell-free assay; 1 µM): -10.1%
COc1cc(Nc2nc(C)cc(-c3cnn4nc(OC)ccc34)n2)cc(C(F)(F)F)c1  remaining activity (inhibitor; 1 µM; relative to: control): 89%
Cc1cnc2nc1Nc1cccc(c1)COC/C=C/COCc1cc(ccc1OCCN1CCOCC1)N2  remaining binding (binding; 0.1 µM): 100%
C=CC(=O)N1CCc2ccc(-n3c(=O)ccc4cnc5ccc(-c6cnn(C)c6)cc5c43)cc21  remaining binding (KINOMEscan; 1 µM; relative to: DMSO control): 100%
CNC1C[S+]2CC[S+]3CC[S+](C1)[Ru-4]321([N]=C=S)[n]2c3ccc(OC)cc3c3c4c(c5cc(F)c[n+]1c5c32)C(=O)NC4=O (stereo not shown)  remaining binding (KinomeScan; 0.1 µM; relative to: untreated): 99%
Nc1ncc2c(n1)-c1c([nH]c3ccc(C4=CCOCC4)cc13)CCC2  remaining binding (binding, competition with immobilised ligand; 1 µM): 100%
COc1cc(Nc2nccc(-c3cnn4nc(OC)ccc34)n2)cc(C(F)(F)F)c1  remaining binding (binding, competition with immobilised ligand; 1 µM): 98%
COc1c(Cl)cccc1Nc1c(-c2ccncc2C#C[C@@]2(C)CCCN2C(=O)/C=C/CN(C)C)[nH]c2c1C(=O)NCC2  remaining binding (binding, competition with immobilised ligand; 3 µM): 96%
CN1CCN(Cc2ccc(-c3ccc(CO[C@H]4CCC[C@@H]4NC(=O)c4cc(-c5cnn(C)c5)cnc4N)cc3)cc2)CC1  inhibition (enzyme activity, inhibitor; 0.1 µM): 7%
Cc1ccc(-c2c(/C=C(\C#N)C(=O)NC(C)C)n(CCCO)c3ncnc(N)c23)cc1  remaining activity (enzyme activity, inhibitor; 1 µM): 70%
NC(=O)C[C@H]1CCc2sc3ncnc(O[C@H]4CC[C@H](N5CCOCC5)CC4)c3c21  inhibition (enzyme activity, inhibitor; 10 µM): -2%
CCN1CCN(Cc2ccc(C(=O)Nc3ccc(C)c(NCc4cnc5[nH]ccc5c4OC)c3)cc2C(F)(F)F)CC1  remaining binding (binding, competition with immobilised ligand; 1 µM): 100%
CNC(=O)C1CCN(c2cc(C)c(F)cc2NC(=O)c2ccc(-c3cc(O)ccc3C)c(C)c2)CC1  remaining binding (binding, competition with immobilised ligand; 1 µM): 99%
NC(=O)[C@@H](O)C[C@H]1CCc2sc3ncnc(O[C@H]4CC[C@H](N5CCOCC5)CC4)c3c21  inhibition (enzyme activity, inhibitor; 10 µM): 4%
C=CC(=O)N1CCCC(n2c(=O)c3ncccc3n(Cc3ccc(Oc4ccccc4)cc3)c2=O)C1 (stereo not shown)  remaining binding (cell-free assay, competition with immobilised ligand; 1 µM): 100%
Nc1ncc(-c2cc(-c3cnn(CC(F)(F)F)c3)ncc2F)nc1C(=O)NC1CNCC(F)C1 (stereo not shown)  remaining activity (enzyme activity; 1 µM; relative to: DMSO control): 109%
CNC(=O)C[C@H](Cc1ccc(C#N)cc1)NC(=O)c1cc(-c2ccc(CN[C@H](C)c3ccc(C)cc3)o2)ccc1Cl  activity vs control (enzyme activity, inhibitor; 1 µM): 122%
COCC12C(=O)NC3C4(C(OC)CC1O)C1CC5(O)C(OC)C(O)C(OC(C)=O)(C1C5OC(=O)c1ccccc1)C3(O)C(OC)C24 (stereo not shown)  remaining activity (kinase activity, inhibitor, ProQinase kinase profiling; 25 µM; relative to: control): 97% and 101%
Cc1nc2c(F)cc(-c3nc(Nc4ccc(CNC(=O)CCCCCCC(=O)NO)cc4)ncc3F)cc2n1C(C)C  inhibition (enzyme activity, inhibitor; 1 µM): 61%
O=C(Cc1ccc(OCc2ccccc2)cc1)NC1(C(=O)O)CCN(C(=O)c2ccc(-c3cccc(Cl)c3)cc2)CC1  activity vs control (enzyme activity, inhibitor; 10 µM): 101%
CN1CC[C@@H](COc2cnc(C#N)cc2-c2ccn3nc(NC(=O)C4CC4)cc3c2)C1  inhibition (enzyme activity, inhibitor; 1 µM): -13%

Some of these lines once more:
Nc1ncc2c(n1)-c1c([nH]c3ccc(C4=CCOCC4)cc13)CCC2  remaining binding (binding, competition with immobilised ligand; 1 µM): 100%
COc1cc(Nc2nccc(-c3cnn4nc(OC)ccc34)n2)cc(C(F)(F)F)c1  remaining binding (binding, competition with immobilised ligand; 1 µM): 98%
